Measured values from different studies.
Compare with care: the assays were run in different laboratories.
rep main protease: Replicase polyprotein 1ab, main protease (rep, Severe acute respiratory syndrome coronavirus 2, UniProt P0DTD1)

Substance	tested on	assay	system	setting	how to read	measurement	result
CC(C)(NS(=O)(=O)c1ccc2c(Cl)cnc(N=C(N)N)c2c1)C(=O)O	rep main protease	viral replication, mKate2 reporter	SARS-CoV-2	20 µM	–	inhibition	-0.809%
Nc1ncnc2c([C@@H]3N[C@H](CO)[C@@H](O)[C@H]3O)c[nH]c12	Japanese encephalitis virus	viral replication, inhibitor	Vero 76	29.6 µM	–	inhibition	24.6%
FNICQAVTANVNALL	human CD4 T cells	AIM	peptide	–	–	responding donors	6%
CC[C@H](C)[C@H](NC(=O)[C@H](CC(C)C)NC(=O)[C@H](Cc1c[nH]c2ccccc12)NC(=O)[C@H](CCC(N)=O)NC(=O)[C@@H](NC(=O)[C@H](Cc1ccccc1)NC(=O)[C@H](C)NC(=O)[C@H](CCCCNC(=O)COCCOCCNC(=O)COCCOCCNC(=O)CC[C@H](NC(=O)CCCCCCCCCCCCCCCCCCC(=O)O)C(=O)O)NC(=O)[C@H](CCC(N)=O)NC(=O)[C@H](C)NC(=O)[C@@H](NC(=O)[C@H](CCCCN)NC(=O)[C@H](CC(=O)O)NC(=O)[C@H](CC(C)C)NC(=O)C(C)(C)NC(=O)[C@@H](NC(=O)[C@H](CO)NC(=O)[C@H](Cc1ccc(O)cc1)NC(=O)[C@H](CC(=O)O)NC(=O)[C@H](CO)NC(=O)[C@@H](NC(=O)[C@H](Cc1ccccc1)NC(=O)[C@@H](NC(=O)CNC(=O)[C@H](CCC(=O)O)NC(=O)C(C)(C)NC(=O)[C@@H](N)Cc1ccc(O)cc1)[C@@H](C)O)[C@@H](C)O)[C@@H](C)CC)[C@@H](C)CC)C(C)C)C(=O)N[C@@H](C)C(=O)NCC(=O)NCC(=O)N1CCC[C@H]1C(=O)N[C@@H](CO)C(=O)N[C@@H](CO)C(=O)NCC(=O)N[C@@H](C)C(=O)N1CCC[C@H]1C(=O)N1CCC[C@H]1C(=O)N1CCC[C@H]1C(=O)N[C@@H](CO)C(N)=O	–	–	human, plasma	4.5 mg, day 22, multiple ascending dose, geometric mean	–	CL/F	0.727 mL/min
RIKASMPTT	–	AIM	peptide, CD8+ T cells from PBMC, human donors	HLA-A*30:01 restricted, unit not given	relative to: positive over tested donors	frequency of responding donors	100
COc1cc(/C=C2/SC(=S)NC2=O)ccc1OCC(=O)O	rep main protease	viral replication, Gluc reporter	SARS-CoV-2	20 µM	–	inhibition	-1.26%
Cn1cnc(Cn2c(=O)[nH]/c(=N\c3cc4cn(C)nc4cc3Cl)n(Cc3cc(F)c(F)cc3F)c2=O)n1	–	–	human, moderate renal impairment, plasma	oral, 375 mg single dose	–	Cmax	20500 ng/mL
